Measurements from different studies.
± marks the error that the study gave.

| Structure (SMILES) | assay | system | conditions | how to read | measurement | result |
| --- | --- | --- | --- | --- | --- | --- |
| N#Cc1ccc2c(-c3ccncc3)c(-c3ccc(F)cc3)nn2c1 | kinase binding, competitor, MIB/MS competition, item: RIM11 | Candida albicans cell lysate | 100 nM | reference: DMSO | log2 fold change | -0.392 |
| CC(C)NCC(O)c1ccc(O)c(O)c1 (stereo not drawn) |  | ventricular cardiomyocytes, C57BL/6 mouse | dose not given, 0.74 s |  | sarcomere length | 1.72 µm |
| C[C@@H](NC(=O)N1C(=O)[C@H](Cc2ccnc(N)c2)[C@H]1C(=O)O)C1CCCCC1 |  | human | iv infusion, 1.5 mg/kg/h, 24 h |  | time to aPTT Emax | 72 h |
| O=C(O)CNC(=O)Cc1ccccc1 |  | ventricular cardiomyocytes, C57BL/6 mouse | dose not given, 0.112 s |  | sarcomere length | 1.72 µm |
| c1ccc(-c2n[nH]cc2-c2ccnc3ccccc23)nc1 | kinase binding, competitor, MIB/MS competition, item: GIN4 | Candida albicans cell lysate | 1 µM | reference: DMSO | log2 fold change | 1.38 |
| Cc1ccc([C@@H]2O[C@H](CO)[C@@H](O)[C@H](O)[C@H]2O)cc1Cc1ccc(-c2ccc(F)cc2)s1 |  | Japanese type 2 diabetes patients | 400 mg, day 2 | reference: day 1 | change in fasting plasma glucose | -41 mg/dL |
| N#Cc1ccc2c(c1)[C@H]1CCCN(C(=O)c3ccc4[nH]cnc4c3)[C@H]1C2 |  | T2DM patients with overweight or obesity, urine | oral, 20 mg, day 14, 0-24 h, multiple dosing, adjusted geometric mean | reference: baseline day -1, -24-0 h | total urinary corticosteroid excretion | 199% |
| CNC(=O)c1ccc(N2C(=S)N(c3ccc(C#N)c(C(F)(F)F)c3)C(=O)C2(C)C)cc1F | western blot | NRG mouse male, CWR22Rv1 xenograft, tumour | dose not given, 16 days |  | full-length AR protein level | no effect |
| OC(CCN1CCCCC1)(c1ccccc1)C1CC2C=CC1C2 (stereo not drawn) | resting-state EEG | healthy elderly humans | oral, 4 mg, eyes open, LS mean |  | EEG Alpha1-power Pz-O2 | 4.3 µV² |
| CN[C@@H](C)C(=O)N[C@H]1CN(S(=O)(=O)c2cccc(S(=O)(=O)N3CC[C@H]4CC[C@@H](C(=O)NC(c5ccccc5)c5ccccc5)N4C(=O)[C@@H](NC(=O)[C@H](C)NC)C3)c2)CC[C@H]2CC[C@@H](C(=O)NC(c3ccccc3)c3ccccc3)N2C1=O | RECIST 1.1 | advanced pancreatic cancer patients | dose not given, no prior therapy, together with: AG |  | best response partial response | 33.3% |
| Cc1cc(C)c(CNC(=O)c2cc(Cl)c3c(c2C)O[C@@](C)([C@H]2CC[C@H](N(C)C)CC2)O3)c(=O)[nH]1 | IWG criteria | relapsed/refractory PTCL patients | dose not given |  | best response not assessed | 9% |
| Cc1cc(C)c(CNC(=O)c2cc(Cl)c3c(c2C)O[C@@](C)([C@H]2CC[C@H](N(C)C)CC2)O3)c(=O)[nH]1 |  | relapsed/refractory NHL patients, PTCL | oral, dose not given |  | best overall response ND | 7.7% |
| C[C@@H](O)CCOC(=O)C[C@@H](C)O | item: C5-OH/C3-DC acylcarnitine | human, plasma | 60 min, log2-transformed values |  | metabolite level | -4.67 ± 0.65 µmol/L |
| COc1ccc(F)cc1C(=O)NCc1ccc(-c2nn([C@@H](C)C(F)(F)F)c(N)c2C(N)=O)cc1 |  | relapsed/refractory CLL patients | dose not given, monotherapy |  | best overall response CR | 2% |
| NC(=O)c1cnc2[nH]ccc2c1N[C@@H]1[C@@H]2CC3C[C@H]1C[C@@](O)(C3)C2 | flow cytometry, item: CD8+ central memory T cells | Japanese healthy subjects, peripheral blood | oral, 10 mg twice daily, day 4 |  | change from baseline | -0.48% |
| O=C(O)C1=CC(=C(c2ccc(O)c(C(=O)O)c2)c2ccc(O)c(C(=O)O)c2)C=CC1=O | flow cytometry | C57BL/6J mouse MC-38 tumour, tumour-infiltrating lymphocytes | peritumoral, dose not given, 2 cycles | reference: vehicle | CD3+ T cell number | no effect |
| C[C@H](Oc1ccc(Br)cc1-c1ccon1)C(=O)O | muscle velocity recovery cycles | human, tibialis anterior muscle | 1200 mg single dose, 3.5 h post-dose, frequency ramp, first response at 15 Hz | reference: placebo | peak amplitude change | 13.2% |
| COc1cc(O)c(CC=C(C)C)c(O)c1C(=O)/C=C/c1ccc(O)cc1 |  | male Tac:SW germ-free mice, high-fat diet | in diet, 60 mg/kg/day, 10 weeks |  | fasting plasma insulin | 1.08 ng/mL |

Some of these lines once more:
| Structure (SMILES) | assay | system | conditions | how to read | measurement | result |
| --- | --- | --- | --- | --- | --- | --- |
| COc1ccc(F)cc1C(=O)NCc1ccc(-c2nn([C@@H](C)C(F)(F)F)c(N)c2C(N)=O)cc1 |  | relapsed/refractory CLL patients | dose not given, monotherapy |  | best overall response CR | 2% |
